Assay results from different studies.
Parts stem from different laboratories: compare values within a part only. Positions count from the first letter of the parent shown.

Set 1 — method: RNA Bind-n-Seq; form: RNA; medium: in vitro; tested at: 365 nM; reference: no-protein control; direction: higher = stronger binding
Target: RNA binding protein fox-1 homolog 2, RRM domain, GST-SBP tag (RBFOX2, Homo sapiens, UniProt O43251-10, residues 100-194)
Setting: natural RNA segment, single round, ends assumed
Shared flanks, not repeated: GGGAGUUCUACAGUCCGACGAUC … UGGAAUUCUCGGGUGCCAA
Residues (chain): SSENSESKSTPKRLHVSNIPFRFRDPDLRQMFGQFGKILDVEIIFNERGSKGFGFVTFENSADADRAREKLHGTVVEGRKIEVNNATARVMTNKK
| Sequence | RBNS enrichment (R) |
| --- | --- |
| GAUUUAAGGCCAAGGGCCAGUGGGUGGCAUGGGGUGGCACUAAUCUUGUGUGUUGCUUGGACAUUUGCAAUUCAGAAGAUAAGCUAGAGAGGCUCUUACUAGGGCCCUCA | 1.37 |
| GUCUCACAGUGGGAUUGUGGUUGUCUGAGGACACUUUGGGGGGUCGCUGUCCAAGAAGUGGCUCCCCAAAGUAUAAGUGCGGGUGAGGUUUACUGAUACCCCACAGUGGA | 0.468 |
| GCAGUACUCUGCCAAUUUUAGAAGGUAAUUCCCAGAUCUGUUCUCAGCAAGAAAGUACCCUGUUGGAUAGUCCAGAUGAAGAAGUGGCUCACUAUAUAUCCCUGCAUAGA | 0.352 |
| UCAUAAUUUUGUAAUAAUCUUUAUUUUCCCUUAGCAAACCAAGUAAAAAUAAACUAGUAAAAGAUUAUCAUGUUUUAUGACCAUCAACGGAAUCAUUUUAAUGUGUUCCU | 0.344 |
| CUGGCUUGCUGUCUGCAAGGCCCAUGUGGGCCUUUUGGCUGAAGCAUUUGUAGAAGCAGCCAUCUUCCCCCUGGUGGGGCUUUGGGGUCUAUGUUAGCCAUUUGUAUCUA | 0.802 |
| UUUGAGAAGUGAAUUAACCUUACAUCCCUUUGUUCAGAUACCUUAAAAGUUACUUUAUUUAAAAGCAUUUAUUAAUCUUAGUCUGAAAUCAAAAUAUAGAUUAAUUGGCU | 0.35 |
| UGUGUGUAUGGGUGCUGUCAGUCUGCUUCAGUCUAGCCAGUCCAGUAUCUCCAAGAUGAGACUCAACAGGACUUGGAUUUUGAGAAGCCCAGGCUCUAAAUAAUAGCCUC | 0.34 |
| UUAAACCUCCCUUCCUAAAAUCUGGGGGGUCGGGGGGAAAGAAAAAAAAAGCCUUAGUGGCCUGGUUGUUCAAAGGAUAAGAAUAGCUUUAUCCUGCACUCAGUACCCGA | 0.824 |
| CCUGUAAGCAGGAAAAAUACGUCAAAUCAGAUAGAAUAGAGCAUUUACCAGUGGUCGAUGGCCUGGUCAGUCCUGUGCCGGGUGACUUAGGACCAGGCACGUCAGCUCUC | 0.442 |
| AUGUAUUUUUACUACACUUUUCUUAAAAAUGGAGCAGUGGGAAAACUCUGAAAGAGAUUGACAUUUUUCUCAACAGGAAUCCAUACUUAACAGUUCUGGCUUUCAUUAAA | 0.385 |
| CUGCCCCACCUAGCCUGGGCAGCAGGGCUGCCAAGGUCAGAAUGGCCUGGCUAGGAGCCCUUCAGGCCUCUCUCUCCUCUGUCCACCCUUGGCCUGUCUCAUCCCUGUGG | 0.362 |
| UUGUACCCCCACCCCCUGCACCUCCCUGCGAUCUGGCUGGCUUGGAUCUCAUUUUUUAACCCCUUCCUGUCUUGCCUGUCCCAUAGAUAAGGCCUGUGUGCUGCUCUCAU | 1.44 |

Set 2 — method: aptamer microarray, sandwich; form: DNA with 2'F-ANA; medium: in vitro; tested at: 200 nM; together with: Cy3 exosite-II aptamer, 400 nM; direction: higher = stronger binding; sequence: GGTTGGTGTGGTTGG
Target: Prothrombin, mature alpha-thrombin (F2, Homo sapiens, UniProt P00734)
Setting: whole 15-mer aptamer, many near background
| Modification | mean fluorescence intensity [a.u.] |
| --- | --- |
| 2'F-ANA at 2 6 8 10 11 13 15 | 110 |
| 2'F-ANA at 1 3 5 6 8 9 10 11 12 13 15 | 72.9 |
| 2'F-ANA at 1 4 5 8 10 11 13 14 | 45.6 |
| 2'F-ANA at 1 3 4 5 6 7 8 9 11 13 14 | 53.4 |
| 2'F-ANA at 1 4 5 6 9 10 11 14 15 | 50.2 |
| 2'F-ANA at 2 3 4 7 10 13 15 | 220 |
| 2'F-ANA at 1 2 4 5 7 12 14 | 98.9 |
| 2'F-ANA at 2 3 4 5 6 12 13 14 | 52.7 |
| 2'F-ANA at 5 6 7 10 12 14 15 | 44.2 |
| 2'F-ANA at 5 9 15 | 141 |
| 2'F-ANA at 2 3 4 10 11 14 | 198 |
| 2'F-ANA at 1 3 4 7 8 11 12 13 | 309 |
| 2'F-ANA at 2 4 7 10 11 | 92.3 |
| 2'F-ANA at 3 6 7 11 13 | 886 |
| 2'F-ANA at 1 4 5 6 7 8 11 13 14 15 | 52.3 |
| 2'F-ANA at 1 3 4 5 8 9 12 13 15 | 78.3 |
| 2'F-ANA at 1 4 5 6 7 8 11 12 15 | 81.4 |
| 2'F-ANA at 1 5 6 7 8 9 13 15 | 49.5 |
| 2'F-ANA at 1 3 4 5 7 8 9 10 11 13 15 | 116 |
| 2'F-ANA at 1 2 6 8 11 12 13 15 | 243 |
| 2'F-ANA at 4 5 8 14 15 | 42.7 |
| 2'F-ANA at 2 5 6 8 10 12 14 15 | 76.9 |
| 2'F-ANA at 1 5 6 9 12 13 14 | 53.7 |
| 2'F-ANA at 9 11 13 14 15 | 145 |
| 2'F-ANA at 2 6 7 8 9 11 12 15 | 479 |

Set 3 — method: RNA Bind-n-Seq; form: RNA; medium: in vitro; tested at: 1 µM; setting: whole 134-nt RNA, ends assumed; together with: 150 mM KCl; reference: input library; direction: higher = stronger binding
Target: Ras GTPase-activating protein-binding protein 1, C-terminal RGG region (G3BP1, Homo sapiens, UniProt Q13283)
Sequence of UniProt Q13283 (whole entry, looked up): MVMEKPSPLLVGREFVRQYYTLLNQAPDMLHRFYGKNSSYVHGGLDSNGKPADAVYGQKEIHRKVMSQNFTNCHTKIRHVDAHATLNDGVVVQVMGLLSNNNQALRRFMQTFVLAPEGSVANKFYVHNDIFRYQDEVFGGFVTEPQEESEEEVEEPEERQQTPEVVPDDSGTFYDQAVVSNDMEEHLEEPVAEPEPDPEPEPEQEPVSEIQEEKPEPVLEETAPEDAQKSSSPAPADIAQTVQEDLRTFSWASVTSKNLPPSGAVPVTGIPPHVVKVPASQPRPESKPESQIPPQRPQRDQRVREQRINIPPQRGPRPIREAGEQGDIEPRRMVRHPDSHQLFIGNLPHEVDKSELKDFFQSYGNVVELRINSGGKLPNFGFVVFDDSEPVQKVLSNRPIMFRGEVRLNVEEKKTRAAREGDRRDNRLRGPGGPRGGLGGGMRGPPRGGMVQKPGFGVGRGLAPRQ
Shared flanks, not repeated: GGGAGUUCUACAGUCCGACGAUC … UGGAAUUCUCGGGUGUCAAGG
| Sequence | log2 enrichment |
| --- | --- |
| CUCAAGUCCUGUGCUACACAUCGUAUGUACCGAAUCGGGGAGGGGAGGGAGGGGAAAGUAUUAUGUUACGCCGUUCGGAUCUGCACUUCC | 3.01 |
| CCUGUGCUACACAUCGUAUGUACCGAAUCGGGGAAAAAAAGGGAAAAAAAGGAAAAAAAGGAAAGUAUUAUGUUACGCCGUUCGGAUCUG | -1.7 |
| AAGUCCUGUGCUACACAUCGUAUGUACCGAAUCGGCCCCGGGCCCCGGGGCCCCGGGAAAGUAUUAUGUUACGCCGUUCGGAUCUGCACU | -2.3 |
| CACAGACAACACGCACCCACACAGACACAGAGGGAAGGGGUUGAGAUGGGGACAGGGUGCACAGCAGGGCGGGGUAGGACCCCAGCCCCU | -0.662 |
| UUCCUCAAGUCCUGUGCUACACAUCGUAUGUACCGAAUCGGUGGAGGAGGAAAGUAUUAUGUUACGCCGUUCGGAUCUGCACUUCCAGCA | -1.5 |
| AGUCCUGUGCUACACAUCGUAUGUACCGAAUCGGUUUGGAAAAAAAGGAAAAAAAGGAAAGUAUUAUGUUACGCCGUUCGGAUCUGCACU | -1.81 |
| CCUGUGCUACACAUCGUAUGUACCGAAUCGGGGUUUUUUGGGGUUUUUUGGGUUUUUUGGGAAAGUAUUAUGUUACGCCGUUCGGAUCUG | -0.869 |
| UGGCCCUGGUGGCAUGCGGGGAGGAAGAGGUGGCCUCAUGGAUCGUGGUGGUCCCGGUGGAAUGUUCAGAGGUGUCCGUGGUGGAGACAG | 3.15 |

Set 4 — target: CCNB2, cyclin fold, Cln2 fusion (human); method: yeast growth competition, sequencing; medium: yeast; setting: weak parent motif; reference: not given; direction: higher = stronger binding
Starting sequence: DBF4 docking peptide (human); DDIVSKLVFDFVE
| Substitution | normalised enrichment score |
| --- | --- |
| DDIVSKAVFDFVE [L7A] | -0.792 |
| DDIVSKLVFDAVE [F11A] | 0.261 |
| DDIVSKLVFDFAE [V12A] | -0.231 |
| DDIASKLVFDFVE [V4A] | 0.0655 |
| DDIVAKLVFDFVE [S5A] | 0.724 |
| ADIVSKLVFDFVE [D1A] | -0.0231 |

Set 5 — method: DHFR PCA, deep sequencing; medium: yeast; together with: (+)-ABA 200 µM; reference: wild-type fitted maximum; direction: higher = stronger binding
Target: ABI1, truncated, D143A, DHFR fusion (Arabidopsis thaliana)
Setting: methotrexate growth selection, single substitutions
Starting sequence: PYL1, truncated, DHFR fusion (Arabidopsis thaliana); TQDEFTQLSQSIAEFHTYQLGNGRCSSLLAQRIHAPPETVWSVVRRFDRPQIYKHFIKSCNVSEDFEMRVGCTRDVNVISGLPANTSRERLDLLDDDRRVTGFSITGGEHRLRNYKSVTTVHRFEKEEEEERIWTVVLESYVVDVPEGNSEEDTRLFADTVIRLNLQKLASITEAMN; partner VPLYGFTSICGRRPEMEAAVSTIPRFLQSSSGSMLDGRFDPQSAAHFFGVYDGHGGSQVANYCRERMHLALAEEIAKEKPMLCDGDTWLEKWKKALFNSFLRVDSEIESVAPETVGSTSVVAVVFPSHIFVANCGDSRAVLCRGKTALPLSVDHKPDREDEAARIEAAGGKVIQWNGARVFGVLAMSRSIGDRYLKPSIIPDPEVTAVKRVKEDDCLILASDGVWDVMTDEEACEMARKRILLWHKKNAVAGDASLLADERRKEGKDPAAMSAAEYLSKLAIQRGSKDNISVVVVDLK
| Substitution | relative binding score |
| --- | --- |
| K116S | 104% |
| H110S | 54.9% |
| E64D | 104% |
| T6M | 101% |
| T86H | 95.9% |
| E67C | 98% |
| L28H | 58.8% |
| A13M | 94.6% |
| L164Q | 96.3% |
| R88C | 103% |
| K116L | 12.1% |
| P83W | 13.4% |
| R24K | 109% |
| N114C | 46.8% |
| N22K | 97.4% |
| M176W | 96% |
| N22A | 100% |
| S9N | 101% |
| D65M | 94.9% |
| F66P | 84.7% |
